Measured values of several laboratories.
Every numbered part comes from another study and shows a few of its results, in no order. Substitutions count along the parent as printed.

Study 1
Target: RNA binding protein fox-1 homolog 2, RRM domain, GST-SBP tag (RBFOX2, Homo sapiens, UniProt O43251-10, residues 100-194)
Method: RNA Bind-n-Seq
Form: RNA
Matrix: in vitro
Concentration: 365 nM
Setting: natural RNA segment, single round, ends assumed
Baseline: no-protein control
Reading: higher = stronger binding
Measurement: RBNS enrichment (R)
Construct (chain): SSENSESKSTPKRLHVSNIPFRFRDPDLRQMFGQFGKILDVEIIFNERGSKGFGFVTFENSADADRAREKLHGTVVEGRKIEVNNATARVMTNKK
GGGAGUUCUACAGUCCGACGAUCAAUGCAAGAUGACUCAGAGUAUAGGUCAGGGUCAGCACUGGAUAAGGUCAUGAGGGCAGUCUCCCAGACUGCAGGCCUGAGUAAGUGUUGAGUUUUGCAUAAACACAAACUGGAAUUCUCGGGUGCCAA: 0.326
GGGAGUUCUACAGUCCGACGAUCGAGCGGCGACGCAAGUACCACUGAAGAGGGGUCGCUGGAGGGCAUUGCAUGGCCGAGCAUAACUGCCCGCCCCACUCCGACCUAGGAAGAAUUCAACUGGCUGAACCUUCUGGAAUUCUCGGGUGCCAA: 7.73
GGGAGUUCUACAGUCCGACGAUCGUGUUUUAACAGGUUCUCCCGGUGAUGCUGGUGCAUGCUCAAGUUUGAGAACCGCUGCUCUCAUAGACUGCUCCUCCAAGGGGAAGCAGUGUGGAACAGCAGAGAAAGUCUGGAAUUCUCGGGUGCCAA: 4.69
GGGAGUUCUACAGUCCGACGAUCUACGAGUCCACAUGGAUAAAAUGUUAGAGAGUGGAGUUCUACAGAGGAUUCCAGGAAGAGGCCAUGUCUGUGCAGUCCUAGUUCCAGACAGGUGAGAAGCUCCAGGAACUUGGAAUUCUCGGGUGCCAA: 0.33
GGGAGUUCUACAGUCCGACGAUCAUGUCGGGCCAGCCAACAGUAACACUUGCCAAGAAGCAUGGCGUAGAAAUUUCUAUGUUCCGAAACAAGAGUAGUGUCCACAUGUGAGCUUUUCACAUUACCUUAUGUAUUGGAAUUCUCGGGUGCCAA: 3.03
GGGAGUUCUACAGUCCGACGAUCUUGGCAUUCUUAUGUUUGGGUUUAAUAAGAUUAAGAAAAUGAUACUGGGAAUUUUCUUUUUCCUGAAACUUUGAAUCACCCUAGUAAGUCAAAGUACUAAAAAAUGUACUUGGAAUUCUCGGGUGCCAA: 0.868
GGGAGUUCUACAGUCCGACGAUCUUUAGGCAGUGAGUAAUGCUUAUAAGCAAAUUACUGAAGGAUUUAAAAAUGGACAGCCAAUGUGUUCAGCCGCUCUGGCCUGUACCCCCUGGGGCCUCUAGUGUAUUGUAUGGAAUUCUCGGGUGCCAA: 0.872
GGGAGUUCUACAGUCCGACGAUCUGCCAACAGUGGACUCAAACGGCGUGACUACCAACCCUGUCCCCAGUUUUCUCCCAUUCCGUCGUCACCCGUGCCCCUCACCCACAAUCCCCUUGUUGGACACACUGCCUUGGAAUUCUCGGGUGCCAA: 0.632
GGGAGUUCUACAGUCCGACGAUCUUUCAUACGGUGAAUAUGCAUUUGGUCUGUACUGAUCAUGGAAUAAACACAUCUCUCUUUUUUUAAUCUGGCGUCUCCCUGACAUUUCUUUGUGAACCAACUGUUGCCUAUGGAAUUCUCGGGUGCCAA: 0.456
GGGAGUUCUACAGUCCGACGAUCUCCACCCCUUGUCUUUGUGUGUCAGGUGAUCAUUGAAAUCGUAUCUUGAGCUUGAAUUCACUUCUCUGUCUGUUUCCGGAGCUGGUGAAAUAAAUGUGAUUUUUGUCCGAUGGAAUUCUCGGGUGCCAA: 9.14
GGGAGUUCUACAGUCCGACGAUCCCCUCGUGUACAACCAAAGAACAGGCAUUAUGAAAUUGUAUAGUAAUAUCUAGAAACACCACUUCCCUCCAACCUGCGACUUUUGUACAAAAUUCAGAGAAUCUGUAAAGUGGAAUUCUCGGGUGCCAA: 0.29
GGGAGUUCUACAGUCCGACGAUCCGGUUGUAAAGAGGUUGUGCAGUUGCAAGGGUGGAGCCUUCUGGGUCCCUUGAGCCAAAGGCCUACCAUCUGCUCGAGGAGUCCCCAUGUCCCUUGGCUGCUCUCGGGUCUGGAAUUCUCGGGUGCCAA: 0.587

Study 2
Target: Histone acetyltransferase KAT6A, winged helix 1, GST fusion (KAT6A, Homo sapiens, UniProt Q92794, residues 1-85)
Method: protein binding microarray
Form: double-stranded DNA, one strand shown
Matrix: in vitro
Concentration: not given
Setting: 8-mer, flanks averaged, mean of 2 arrays, mostly near background
Baseline: not given
Reading: higher = stronger binding
Measurement: E-score
Target sequence (chain): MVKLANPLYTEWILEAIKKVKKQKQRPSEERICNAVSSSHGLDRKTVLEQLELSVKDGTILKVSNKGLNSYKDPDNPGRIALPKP
ATGCCAAA: -0.31
GAAAACGA: -0.0811
GTCACCGA: -0.148
AGGAGGAC: -0.152
TAGGCATA: -0.146
GGAGGACA: -0.0608
CTGTACAC: -0.0262
ATCGACCG: 0.164
TATCGTGA: -0.104
ACCTGAGC: -0.00504
GCCACTGA: -0.231
AGGTGTTA: -0.206
CTGCACCA: -0.194
GCACCCTA: -0.0967
CCAAATAC: -0.282
CAACTTCG: -0.028
CGGTCACA: 0.149

Study 3
Target: CCNA2, cyclin fold, Cln2 fusion (human)
Method: yeast growth competition, sequencing
Matrix: yeast
Setting: strong parent motif
Baseline: not given
Reading: higher = stronger binding
Measurement: normalised enrichment score
Starting sequence: ITGB3BP docking peptide (human); MPVKRSLKLDGLL
M1A: 0.879
L13A: 2.26
R5K: 0.545
G11A: 3.06
P2A: 1.84
L9F: 5.52
L12A: 2.4
R5A L7A: 0.47
R5A: 0.569
L7A: 1.79

Study 4
Target: ABI1, truncated, D143A, DHFR fusion (Arabidopsis thaliana, UniProt P49597)
Method: DHFR PCA, dose-response
Matrix: yeast
Setting: Hill fit, mean, not affinity
Together with: (+)-ABA, dose series
Reading: lower = more sensitive
Measurement: ABA EC50
Starting sequence: PYL1, truncated, DHFR fusion (Arabidopsis thaliana, UniProt Q8VZS8); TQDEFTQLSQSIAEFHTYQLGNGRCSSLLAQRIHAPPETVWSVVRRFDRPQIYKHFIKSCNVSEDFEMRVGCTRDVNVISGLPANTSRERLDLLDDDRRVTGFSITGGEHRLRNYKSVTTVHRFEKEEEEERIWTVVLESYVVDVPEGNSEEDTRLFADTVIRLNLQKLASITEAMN
F56A: 239 µM
V70T: 8.69 µM
V76M: 75.2 µM
D48W: 266 µM
E38Y: 55.7 µM
D75E: 0.597 µM
T101W: 162 µM
T101E: 508 µM
S171L: 3.27 µM
G23L: 18.8 µM
L28M: 1.59 µM
H34C: 1.67 µM
G21W: 8.05 µM
D144T: 19.1 µM
I12E: 152 µM
I79G: 55.6 µM
Q19Y: 5.19 µM
T86H: 1.64 µM
I57N: 468 µM
V143C: 9.41 µM
V142A: 4.85 µM
E129K: 2.04 µM
N114W: 578 µM

Study 5
Target: CEBPB, bZIP domain (human)
Method: DHFR protein complementation
Matrix: yeast
Setting: single substitutions, most at no-binding floor
Baseline: wild-type JUN-FOS pair
Reading: higher = stronger binding
Measurement: binding fitness
Starting sequence: JUN, bZIP domain (human); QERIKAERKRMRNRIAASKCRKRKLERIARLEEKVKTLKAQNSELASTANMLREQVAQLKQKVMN; partner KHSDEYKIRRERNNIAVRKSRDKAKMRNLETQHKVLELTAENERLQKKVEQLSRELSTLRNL
V35E: -1.39 natural log
R53V: -1.27 natural log
E32M: -1.4 natural log
K39L: -1.36 natural log
K34Q: -1.25 natural log
L45C: -1.55 natural log
S47W: -1.39 natural log
L38K: -1.44 natural log
L38A: -1.46 natural log
T48I: -1.39 natural log
A46F: -1.39 natural log
Q41E: -1.44 natural log
L45V: -1.5 natural log
L31Y: -1.4 natural log
E32Y: -1.53 natural log
S43F: -1.12 natural log
L45N: -1.43 natural log
R30V: -1.11 natural log

Study 6
Target: Sal-like protein 4, full length isoform B (SALL4, Homo sapiens, UniProt Q9UJQ4-2, residues 1-616)
Method: universal PBM
Form: double-stranded DNA, one strand shown
Matrix: in vitro
Concentration: not given
Setting: 8-mer, flanks averaged, mean of replicates
Reading: higher = stronger binding
Measurement: E-score
AAGATTTA: 0.22
CGTCTGTA: 0.111
AAACCTGT: 0.0901
GTCTGGTA: -0.127
GAACGGCC: -0.254
ACGGTCGA: -0.192
CTAAGTTC: -0.233
GACAGCAC: -0.138
ACAAACAG: 0.0641
CACCTGGC: -0.268
ATCTGGCG: -0.0423
TAATCAAA: 0.3
CAGACCTC: -0.171
CCCCAAGA: -0.118
GTATCGGA: 0.0161
AAGCCACG: -0.204
CCGTGAAG: -0.0877
ACTAAGTA: 0.0551
ATTCCTTG: 0.0306
CAGGTCCA: -0.131
CGAGGCTC: -0.334

Repeated from above (study 2):
ATCGACCG: 0.164
TATCGTGA: -0.104
ACCTGAGC: -0.00504
GCCACTGA: -0.231
AGGTGTTA: -0.206
CTGCACCA: -0.194
GCACCCTA: -0.0967
CCAAATAC: -0.282
